{"data": "Experimental data from different studies", "note": "Every numbered part comes from another study and shows a few of its results, in no order. Changes are numbered by the printed parent chain."}
{"data": "Set 1", "target": "Max-binding protein MNT, bHLH-zipper, MAX partner unstated (MNT, Homo sapiens, UniProt Q99583, residues 220-300)", "method": "protein-binding microarray", "form": "double-stranded DNA, one strand shown", "sample": "in vitro", "concentration": "not given", "setting": "k-mer, scored over probes, only values ≥0.25", "reading": "higher = stronger binding", "Target sequence (chain)": "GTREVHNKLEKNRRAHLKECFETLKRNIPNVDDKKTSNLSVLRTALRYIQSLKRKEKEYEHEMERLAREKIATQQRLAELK"}
{"Sequence": "CACGCTGA", "E-score": 0.384}
{"Sequence": "CATGGCGC", "E-score": 0.283}
{"Sequence": "ATGCAACG", "E-score": 0.272}
{"Sequence": "GTGACCAC", "E-score": 0.337}
{"Sequence": "CACGTTGC", "E-score": 0.444}
{"Sequence": "CATGGTGG", "E-score": 0.298}
{"Sequence": "CTGTCCCC", "E-score": 0.298}
{"Sequence": "GCACGTTA", "E-score": 0.394}
{"Sequence": "ACGTGCAC", "E-score": 0.469}
{"Sequence": "AGCACGTC", "E-score": 0.26}
{"Sequence": "CCATGGCA", "E-score": 0.303}
{"Sequence": "CGCCACGC", "E-score": 0.411}
{"Sequence": "ACGCCGGA", "E-score": 0.269}
{"data": "Set 2", "target": "CCND3, cyclin fold, Cln2 fusion (human)", "method": "yeast growth competition, sequencing", "sample": "yeast", "setting": "weak parent motif", "reference": "not given", "reading": "higher = stronger binding", "starting sequence": "ORC1 docking peptide (human); PRARKRLELGNLG"}
{"Variant": "PRARKRLELTNLG [G10T]", "normalised enrichment score": 0.0773}
{"Variant": "PRVRKRLELGNLG [A3V]", "normalised enrichment score": 0.0545}
{"Variant": "PRARKRQELGNLG [L7Q]", "normalised enrichment score": 0.16}
{"Variant": "PRARKRLELGTLG [N11T]", "normalised enrichment score": 0.175}
{"Variant": "GRARKRLELGNLG [P1G]", "normalised enrichment score": -0.0473}
{"Variant": "PRCRKRLELGNLG [A3C]", "normalised enrichment score": 0.167}
{"Variant": "VRARKRLELGNLG [P1V]", "normalised enrichment score": 0.0447}
{"Variant": "PRARKRLEEGNLG [L9E]", "normalised enrichment score": 0.0941}
{"Variant": "PRARKRLELGNLD [G13D]", "normalised enrichment score": 0.0443}
{"Variant": "PRARKRLELGNSG [L12S]", "normalised enrichment score": 0.145}
{"Variant": "PRKRKRLELGNLG [A3K]", "normalised enrichment score": 0.159}
{"Variant": "PRARKRLELGNLP [G13P]", "normalised enrichment score": 0.0867}
{"Variant": "PRARKRLELGWLG [N11W]", "normalised enrichment score": 0.163}
{"Variant": "PRARKRLELGNLQ [G13Q]", "normalised enrichment score": 0.0263}
{"data": "Set 3", "target": "Ras GTPase-activating protein-binding protein 1, full length (G3BP1, Homo sapiens, UniProt Q13283)", "method": "RNA Bind-n-Seq", "form": "RNA", "sample": "in vitro", "concentration": "200 nM", "setting": "whole 134-nt RNA, ends assumed", "with": "150 mM KCl", "reference": "input library", "reading": "higher = stronger binding", "all sequences stand within": "GGGAGUUCUACAGUCCGACGAUC … UGGAAUUCUCGGGUGUCAAGG", "sequence of UniProt Q13283 (whole entry, looked up)": "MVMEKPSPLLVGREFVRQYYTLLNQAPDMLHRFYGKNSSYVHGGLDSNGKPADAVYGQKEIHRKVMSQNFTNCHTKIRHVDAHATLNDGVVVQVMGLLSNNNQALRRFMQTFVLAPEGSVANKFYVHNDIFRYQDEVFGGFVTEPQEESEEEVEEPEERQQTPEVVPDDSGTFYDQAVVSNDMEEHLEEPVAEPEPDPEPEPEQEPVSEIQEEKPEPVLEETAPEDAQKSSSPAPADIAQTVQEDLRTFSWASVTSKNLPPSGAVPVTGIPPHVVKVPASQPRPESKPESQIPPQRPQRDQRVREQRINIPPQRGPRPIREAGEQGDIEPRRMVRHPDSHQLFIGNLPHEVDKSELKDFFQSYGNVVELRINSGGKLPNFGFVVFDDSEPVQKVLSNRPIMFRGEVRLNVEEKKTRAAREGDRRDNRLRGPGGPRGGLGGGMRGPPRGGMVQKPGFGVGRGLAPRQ"}
{"Sequence": "AGUCCUGUGCUACACAUCGUAUGUACCGAAUCAAAUUUAAACCCCCAAAUUUUUAAAAAAGUAUUAUGUUACGCCGUUCGGAUCUGCACU", "log2 enrichment": -0.399}
{"Sequence": "GCAGGAAGUAAACACAAAUGGAAAUGCUUCGGAUAGUGGCAGGGGUGGGGGUUGCUAAGGAAAGGGUGGGAUGGGAGUGGGUAAAGAGUU", "log2 enrichment": 1.4}
{"Sequence": "CCUGUGCUACACAUCGUAUGUACCGAAUCGGGGUUUUUUUGGGGAAAGGGGAAAAAGGGGAAAGUAUUAUGUUACGCCGUUCGGAUCUGC", "log2 enrichment": 0.194}
{"Sequence": "CUCAAGUCCUGUGCUACACAUCGUAUGUACCGAAUCGGGGAAGGAAGGGGAAGGAAAGUAUUAUGUUACGCCGUUCGGAUCUGCACUUCC", "log2 enrichment": -0.0855}
{"Sequence": "UCAAGUCCUGUGCUACACAUCGUAUGUACCGAAUCGGGGUUGGGUUGGGUUGGGGAAAGUAUUAUGUUACGCCGUUCGGAUCUGCACUUC", "log2 enrichment": 0.942}
{"Sequence": "GCAGGAAGUAAAAACAAAUGGAAAUGCUUCGGAUAGUGGCAGUGGUGGGGGUUGCUAAGGAAAGGGUGGGAUGGGAGUGGGUAAAGAGUU", "log2 enrichment": 0.704}
{"Sequence": "CCUGUGCUACACAUCGUAUGUACCGAAUCGGGGAAAAAAAGGGGUUUGGGGAAAAAGGGGAAAGUAUUAUGUUACGCCGUUCGGAUCUGC", "log2 enrichment": 0.222}
{"Sequence": "AGUCCUGUGCUACACAUCGUAUGUACCGAAUCGGGAAAAAGGGUGGGUUUUUUUGGGAAAGUAUUAUGUUACGCCGUUCGGAUCUGCACU", "log2 enrichment": 0.0612}
{"Sequence": "UCCUGUGCUACACAUCGUAUGUACCGAAUCGGUUUUUUUGGUUUUUUUGGUUUUUUUGGGAAAGUAUUAUGUUACGCCGUUCGGAUCUGC", "log2 enrichment": -0.555}
{"Sequence": "UGAAGGCGCGGCCCUUCCCCGACGGCCUGGCCGAGGACAUCGAUAAAGGCGAGGUGUCCGCCCGUCAGGAGCUCAAGCAGCGGGCGCGCU", "log2 enrichment": -0.546}
{"Sequence": "AAGUCCUGUGCUACACAUCGUAUGUACCGAAUCGGAAAGGAAAAAGGAAAAAAAGGAAAGUAUUAUGUUACGCCGUUCGGAUCUGCACUU", "log2 enrichment": -1.32}
{"Sequence": "UAAUUGAAGAACCCAUUUUGCUCAUUUUAGGCAUCGUUAAAGAAUCUGGAGUGAAGCACAAGGGAUUGAUUGAAAUACCCAAUCUUUCUG", "log2 enrichment": 0.228}
{"data": "Further values, each from its own experiment"}
{"Substance": "PhoQ, residues 284 288 289 292 302 303 SQSLSM", "target": "PhoP, residues 12 14 15 18 19 AQCLL (Escherichia coli, UniProt P23836)", "assay": "Sort-seq, measured: YFP reporter", "test system": "E. coli", "conditions": "PhoQ-PhoP variant library, with: 10 µM Mg2+", "how to read": "reference: high Mg2+ state, higher = stronger signaling", "measurement": "fold induction", "result": 4.12}
{"note": "Excerpt of the above (set 1):"}
{"Sequence": "CACGTTGC", "E-score": 0.444}
{"Sequence": "CATGGTGG", "E-score": 0.298}
{"Sequence": "CTGTCCCC", "E-score": 0.298}
{"Sequence": "GCACGTTA", "E-score": 0.394}
{"Sequence": "ACGTGCAC", "E-score": 0.469}
